Results collected from several papers.
Protocols differ between the studies behind these lines. Values joined by “and” are separate records of one study, mostly repeats; a detail may differ. Numbers after ± are the reported error.
APC: Adenomatous polyposis coli protein (APC, Homo sapiens, UniProt P25054)
MGLL: Monoglyceride lipase (MGLL, Homo sapiens, UniProt Q99685)
Sequence of UniProt Q99685 (whole entry, looked up): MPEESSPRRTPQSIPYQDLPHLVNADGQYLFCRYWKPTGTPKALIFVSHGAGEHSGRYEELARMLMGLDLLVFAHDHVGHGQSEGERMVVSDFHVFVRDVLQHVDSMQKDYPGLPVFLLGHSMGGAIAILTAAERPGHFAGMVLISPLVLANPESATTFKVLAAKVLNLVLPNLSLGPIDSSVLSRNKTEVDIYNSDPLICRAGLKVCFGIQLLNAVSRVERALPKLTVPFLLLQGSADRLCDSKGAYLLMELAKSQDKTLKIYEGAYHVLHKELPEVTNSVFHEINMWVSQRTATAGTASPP
Tpo: Thyroid peroxidase (Tpo, Rattus norvegicus, UniProt P14650)
Sequence of UniProt P14650 (whole entry, looked up): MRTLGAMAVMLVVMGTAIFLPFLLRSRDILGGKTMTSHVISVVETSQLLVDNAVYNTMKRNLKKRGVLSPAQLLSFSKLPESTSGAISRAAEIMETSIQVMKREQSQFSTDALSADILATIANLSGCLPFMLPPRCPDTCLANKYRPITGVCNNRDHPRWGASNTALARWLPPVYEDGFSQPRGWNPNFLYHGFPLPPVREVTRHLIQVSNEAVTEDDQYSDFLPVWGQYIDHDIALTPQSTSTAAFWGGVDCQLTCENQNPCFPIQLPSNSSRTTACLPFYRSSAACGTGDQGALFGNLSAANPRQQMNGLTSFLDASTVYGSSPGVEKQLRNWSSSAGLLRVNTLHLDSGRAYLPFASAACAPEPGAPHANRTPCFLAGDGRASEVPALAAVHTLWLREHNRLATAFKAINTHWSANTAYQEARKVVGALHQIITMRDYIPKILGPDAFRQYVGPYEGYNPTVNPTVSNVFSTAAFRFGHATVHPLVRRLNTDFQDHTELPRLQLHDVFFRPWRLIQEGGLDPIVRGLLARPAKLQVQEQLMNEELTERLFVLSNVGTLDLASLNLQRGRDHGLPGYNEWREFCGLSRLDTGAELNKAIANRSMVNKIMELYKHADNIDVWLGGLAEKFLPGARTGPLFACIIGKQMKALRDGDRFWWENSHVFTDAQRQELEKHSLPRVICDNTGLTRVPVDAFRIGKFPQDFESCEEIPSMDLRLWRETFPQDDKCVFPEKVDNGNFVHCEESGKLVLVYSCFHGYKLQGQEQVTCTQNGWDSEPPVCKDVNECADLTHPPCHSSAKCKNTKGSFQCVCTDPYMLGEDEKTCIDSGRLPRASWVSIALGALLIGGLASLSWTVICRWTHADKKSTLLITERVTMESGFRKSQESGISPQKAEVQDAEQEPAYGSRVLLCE
CACNA1I: Voltage-dependent T-type calcium channel subunit alpha-1I (CACNA1I, Homo sapiens, UniProt Q9P0X4)
EPHX2: Bifunctional epoxide hydrolase 2 (EPHX2, Homo sapiens, UniProt P34913)
Sequence of UniProt P34913 (whole entry, looked up): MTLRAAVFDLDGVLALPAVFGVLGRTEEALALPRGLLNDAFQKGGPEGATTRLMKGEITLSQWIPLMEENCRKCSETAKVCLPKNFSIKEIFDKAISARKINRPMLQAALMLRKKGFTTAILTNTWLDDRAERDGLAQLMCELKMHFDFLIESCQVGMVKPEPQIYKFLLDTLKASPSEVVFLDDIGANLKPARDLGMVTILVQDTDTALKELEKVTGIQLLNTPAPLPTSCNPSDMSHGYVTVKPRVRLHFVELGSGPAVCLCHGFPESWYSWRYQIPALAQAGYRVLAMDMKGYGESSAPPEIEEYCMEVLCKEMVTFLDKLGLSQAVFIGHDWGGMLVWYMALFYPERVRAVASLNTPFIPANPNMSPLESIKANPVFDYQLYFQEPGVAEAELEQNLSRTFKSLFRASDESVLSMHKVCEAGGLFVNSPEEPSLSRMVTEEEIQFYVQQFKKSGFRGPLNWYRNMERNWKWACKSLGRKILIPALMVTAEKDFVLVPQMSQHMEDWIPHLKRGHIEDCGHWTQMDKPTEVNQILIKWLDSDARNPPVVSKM
TRPM4: Transient receptor potential cation channel subfamily M member 4 (TRPM4, Homo sapiens, UniProt Q8TD43)
Sequence of UniProt Q8TD43 (whole entry, looked up): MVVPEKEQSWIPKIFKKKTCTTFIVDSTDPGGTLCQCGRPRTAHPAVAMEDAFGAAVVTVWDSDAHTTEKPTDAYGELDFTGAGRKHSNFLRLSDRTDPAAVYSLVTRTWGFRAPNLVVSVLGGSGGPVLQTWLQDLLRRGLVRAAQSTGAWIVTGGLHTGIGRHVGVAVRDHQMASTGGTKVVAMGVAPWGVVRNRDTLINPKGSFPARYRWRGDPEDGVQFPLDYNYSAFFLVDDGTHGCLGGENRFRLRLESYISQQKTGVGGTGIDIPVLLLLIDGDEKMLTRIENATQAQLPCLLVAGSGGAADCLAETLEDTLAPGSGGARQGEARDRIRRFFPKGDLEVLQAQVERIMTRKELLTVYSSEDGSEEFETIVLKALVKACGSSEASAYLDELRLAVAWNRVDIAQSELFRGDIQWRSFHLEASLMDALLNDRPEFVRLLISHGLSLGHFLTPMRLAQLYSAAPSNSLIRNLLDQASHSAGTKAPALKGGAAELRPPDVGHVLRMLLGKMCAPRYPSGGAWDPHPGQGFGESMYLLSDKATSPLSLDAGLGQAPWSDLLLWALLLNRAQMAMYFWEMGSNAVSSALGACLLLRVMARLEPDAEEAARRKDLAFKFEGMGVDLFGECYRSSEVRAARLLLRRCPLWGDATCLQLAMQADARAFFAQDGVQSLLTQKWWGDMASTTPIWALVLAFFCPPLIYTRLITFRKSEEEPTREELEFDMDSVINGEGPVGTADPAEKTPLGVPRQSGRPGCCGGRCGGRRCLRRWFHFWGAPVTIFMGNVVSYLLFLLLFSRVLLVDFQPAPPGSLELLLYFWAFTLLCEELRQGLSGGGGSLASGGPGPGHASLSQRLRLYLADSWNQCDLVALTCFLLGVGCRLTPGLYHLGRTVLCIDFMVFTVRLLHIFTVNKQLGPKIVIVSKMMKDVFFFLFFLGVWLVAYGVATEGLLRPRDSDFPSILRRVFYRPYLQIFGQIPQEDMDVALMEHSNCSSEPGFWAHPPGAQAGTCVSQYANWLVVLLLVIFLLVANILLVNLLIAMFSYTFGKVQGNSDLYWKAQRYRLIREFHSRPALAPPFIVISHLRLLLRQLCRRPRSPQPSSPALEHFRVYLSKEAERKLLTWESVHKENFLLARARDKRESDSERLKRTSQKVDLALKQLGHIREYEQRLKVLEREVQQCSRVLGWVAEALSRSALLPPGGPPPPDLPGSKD
gag-pol integrase: Gag-Pol polyprotein, integrase (gag-pol, Human immunodeficiency virus 1, UniProt P12497)
Sequence of UniProt O00329 (whole entry, looked up): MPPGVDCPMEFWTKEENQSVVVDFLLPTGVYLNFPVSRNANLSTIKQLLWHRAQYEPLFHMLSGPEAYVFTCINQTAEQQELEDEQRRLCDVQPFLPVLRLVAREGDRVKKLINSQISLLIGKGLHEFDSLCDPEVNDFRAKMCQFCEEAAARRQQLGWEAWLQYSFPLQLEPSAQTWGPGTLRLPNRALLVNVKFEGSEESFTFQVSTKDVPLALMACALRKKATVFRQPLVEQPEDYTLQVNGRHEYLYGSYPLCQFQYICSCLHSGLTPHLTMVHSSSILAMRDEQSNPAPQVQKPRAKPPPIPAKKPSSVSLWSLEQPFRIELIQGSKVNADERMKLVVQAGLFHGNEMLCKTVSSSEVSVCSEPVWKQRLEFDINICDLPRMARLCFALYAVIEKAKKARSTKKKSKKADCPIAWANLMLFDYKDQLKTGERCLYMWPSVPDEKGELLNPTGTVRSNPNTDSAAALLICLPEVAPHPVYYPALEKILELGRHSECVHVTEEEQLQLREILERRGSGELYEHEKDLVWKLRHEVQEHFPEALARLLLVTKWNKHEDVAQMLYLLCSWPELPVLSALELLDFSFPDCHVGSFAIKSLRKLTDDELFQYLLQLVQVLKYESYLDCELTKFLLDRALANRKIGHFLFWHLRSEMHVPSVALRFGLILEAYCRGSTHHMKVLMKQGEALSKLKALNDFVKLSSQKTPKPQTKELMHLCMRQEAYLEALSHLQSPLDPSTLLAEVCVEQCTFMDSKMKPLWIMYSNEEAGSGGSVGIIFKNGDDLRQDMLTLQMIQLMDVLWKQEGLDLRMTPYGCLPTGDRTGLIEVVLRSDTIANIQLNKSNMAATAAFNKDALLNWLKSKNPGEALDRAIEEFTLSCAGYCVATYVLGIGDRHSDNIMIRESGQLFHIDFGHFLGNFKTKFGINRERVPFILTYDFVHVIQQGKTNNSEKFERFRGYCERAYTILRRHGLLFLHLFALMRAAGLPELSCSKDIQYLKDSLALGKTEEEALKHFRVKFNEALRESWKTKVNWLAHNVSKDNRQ
Sequence of UniProt P20618 (whole entry, looked up): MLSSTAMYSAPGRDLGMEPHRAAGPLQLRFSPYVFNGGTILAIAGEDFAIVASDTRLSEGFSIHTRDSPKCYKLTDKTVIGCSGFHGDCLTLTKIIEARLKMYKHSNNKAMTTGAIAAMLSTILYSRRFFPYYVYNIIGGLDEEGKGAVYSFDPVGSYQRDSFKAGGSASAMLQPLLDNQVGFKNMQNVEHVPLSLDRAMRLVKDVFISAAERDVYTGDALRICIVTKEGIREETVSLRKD
Sequence of UniProt Q04206 (whole entry, looked up): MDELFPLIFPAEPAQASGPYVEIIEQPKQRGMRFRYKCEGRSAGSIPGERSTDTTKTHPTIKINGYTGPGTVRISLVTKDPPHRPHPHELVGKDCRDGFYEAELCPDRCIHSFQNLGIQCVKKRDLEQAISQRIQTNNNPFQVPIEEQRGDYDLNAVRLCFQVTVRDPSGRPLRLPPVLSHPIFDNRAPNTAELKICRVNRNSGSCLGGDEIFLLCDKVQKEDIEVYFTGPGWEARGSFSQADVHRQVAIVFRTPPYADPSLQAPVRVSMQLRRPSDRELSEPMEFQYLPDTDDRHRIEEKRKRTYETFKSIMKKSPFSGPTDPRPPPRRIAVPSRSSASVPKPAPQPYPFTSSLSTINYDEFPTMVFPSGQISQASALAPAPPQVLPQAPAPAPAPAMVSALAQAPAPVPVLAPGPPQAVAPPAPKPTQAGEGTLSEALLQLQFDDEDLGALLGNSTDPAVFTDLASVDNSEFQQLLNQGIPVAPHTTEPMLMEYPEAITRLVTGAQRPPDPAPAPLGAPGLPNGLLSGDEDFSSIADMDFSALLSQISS

Structure (SMILES)	target	assay	test system	setting	IC50
COc1cc(/C=C/C(O)=C/C(=O)/C=C/c2ccc(O)cc2)ccc1O	3 beta-hydroxysteroid dehydrogenase/Delta 5-->4-isomerase type 2 (HSD3B2, Homo sapiens, UniProt P26439)	enzyme activity, inhibitor	KGN cell homogenate	lower bound from 100 µM screen, added: pregnenolone	< 100 µM
CC(C)C[C@H](NC(=O)[C@H](Cc1ccc2ccccc2c1)NC(=O)[C@H](CCC(=O)O)NC(=O)c1c(F)c(F)c(F)c(F)c1F)C(=O)NC1CC1c1ccccc1 (stereo partly shown)	APC	ligand displacement, FP			5.94 µM
OC1CCCc2c(OCCOc3ccccc3)cccc21 (stereo not shown)	Amine oxidase [flavin-containing] B (MAOB, Homo sapiens, UniProt P27338)	enzyme activity, inhibitor, fluorescence			1.66 µM
CC(=O)Oc1cc(-c2coc3cc(OC(C)=O)c(OC(C)=O)c(OC(C)=O)c3c2=O)cc(OC(C)=O)c1OC(C)=O	firefly luciferase	luminescence signal, luminescence counter-screen	cell-free, after ADP processing	up to 77 µM, added: ADP 1.25 µM, ATP 11.25 µM	no inhibition
Cc1ccc(S(=O)(=O)N[C@@H](CC(=O)NC(C)(C)C)C(=O)N[C@@H](C)CC(=O)NCc2cccc3ccccc23)cc1	Proteasome component C5/PSMB5 (Homo sapiens, UniProt P20618+P28074)	chymotrypsin-like activity, inhibitor		added: suc-LLVY-AMC	74.9 ± 10.5 µM
C[C@H]1C[C@H]2[C@@H]3CCC4=CC(=O)C=C[C@]4(C)[C@@]3(Cl)[C@@H](O)C[C@]2(C)[C@@]1(O)C(=O)CO	Proto-oncogene tyrosine-protein kinase Src (SRC, Homo sapiens, UniProt P12931)	enzyme activity, inhibitor, ADP detection			> 10 µM
O=C(NNC(=O)c1ccc(CNS(=O)(=O)c2ccc(F)c(Cl)c2)cc1)c1ccccc1	Glutamate NMDA receptor; Grin1/Grin2a (Grin1/Grin2a, Rattus norvegicus, UniProt P35439+Q00959, E790M)	ion current, two-electrode voltage clamp		oocytes	0.6 µM
O=C(OC(C(F)(F)F)C(F)(F)F)N1CCC(CCn2ccc3cc(F)ccc32)CC1	MGLL	enzyme activity, inhibitor			0.38 µM
Oc1ccc(/C=C/c2cc(O)cc(O)c2)cc1	Tpo	enzyme activity, inhibitor, LC-MS/MS, measured: monoiodotyrosine	rat thyroid microsomes	added: L-tyrosine substrate	0.73 µM and 0.76 µM
CC(C)(C)c1ccc(S(=O)(=O)Nc2cccc(-c3nnc(C4CCCCC4)o3)c2)cc1	α-amylase	enzyme activity, inhibitor			5.56 µM
Cc1ccc(NC(=O)NC2(C(=O)N3CCOCC3)CCCCC2)cc1	Endoplasmic reticulum aminopeptidase 1, open conformation (ERAP1, Homo sapiens, UniProt Q9NZ08)	enzyme activity, inhibitor, fluorogenic		partial inhibition, added: L-AMC substrate	> 200 µM
C[C@H](CCC(=O)NCC(=O)O)[C@H]1CC[C@H]2[C@@H]3[C@H](O)C[C@@H]4C[C@H](O)CC[C@]4(C)[C@H]3CC[C@]12C	Organic solute transporter subunit alpha, with OSTβ (SLC51A, Homo sapiens, UniProt Q86UW1)	DHEAS uptake, inhibitor	Flp-In 293 overexpressing OSTα/β	30 s, added: DHEAS 4 µM	> 200 µM
Cc1cn([C@H]2C[C@H](O)[C@@H](CO)O2)c(=O)[nH]c1=O	Nucleoside transporter 1 (Plasmodium vivax, UniProt A5K8B0)	[3H]uridine uptake, inhibitor	Nucleoside transporter 1-expressing yeast	added: 250 nM [3H]uridine	299 µM
Cc1ccc(-c2c(C#N)c(N)n3c(nc4ccccc43)c2C#N)cc1	Ferroptosis suppressor protein 1 (AIFM2, Homo sapiens, UniProt Q9BRQ8)	enzyme activity, inhibitor, absorbance			4 µM
C=CCc1ccc(O)c(-c2cc(CC=C)ccc2O)c1	mitochondrial complex I	complex I-dependent oxygen consumption rate, inhibitor	G-361	24 h	31 µM
CC(C)[C@H]1c2ccc(F)cc2CC[C@@]1(CCN(C)CCCc1nc2ccccc2[nH]1)OC(=O)C1CC1	CACNA1I	inhibitor, FLIPR calcium	HEK293 with GCaMP6s-CAAX, Kir2.3	added: KCl at EC90	0.34 µM
Cc1nc(N=Nc2cc(S(=O)(=O)O)c3cc([N+](=O)[O-])cc(S(=O)(=O)O)c3c2)c(COP(=O)(O)O)c(C=O)c1O	Ubiquitin-associated and SH3 domain-containing protein B (UBASH3B, Homo sapiens, UniProt Q8TF42)	enzyme activity, inhibitor, fluorescence			6.9 µM
O=C(Nc1cc(Cl)c(F)c(Cl)c1)c1cc(S(=O)(=O)N2CCOCC2)c(Cl)cc1Cl	Lysophosphatidic acid receptor 2 (LPAR2, Homo sapiens, UniProt Q9HBW0)	Ca2+ mobilization, antagonist	MEF	added: LPA at EC50	> 100 µM
CN1C(=O)NC(Cc2c[nH]c3c(Cl)cccc23)C1=O (stereo not shown)	Receptor-interacting serine/threonine-protein kinase 2 (RIPK2, Homo sapiens, UniProt O43353)	enzyme activity, inhibitor, ADP-Glo kinase		10 ng enzyme	> 10 µM
Nc1nc(N)c(N=O)c(OCc2ccc(Cl)cc2)n1	Phosphatidylinositol 4,5-bisphosphate 3-kinase catalytic subunit delta isoform (PIK3CD, Homo sapiens, UniProt O00329)	enzyme activity, inhibitor			0.5 µM and 1.1 µM
Cc1ccc(Oc2cccc(CC(=O)N3CCNc4nc(C(F)(F)F)ccc4[C@H]3CC(=O)O)c2)cn1	Neuromedin-B receptor (Rattus norvegicus, UniProt P24053)	ligand displacement, radioligand			> 3 µM
O=C(OC(C(F)(F)F)C(F)(F)F)N1CCN(CCn2ccc3ccc(F)cc32)CC1	MGLL	enzyme activity, inhibitor			0.83 µM
C[C@]12C[C@@H]3C[C@](C)(C1)C[C@@](NC(=O)Nc1ccc(CN4CCC[C@H](C(=O)NCCCC(=O)NO)C4)cc1F)(C3)C2	EPHX2	enzyme activity, inhibitor, fluorescence			0.001 µM
Nc1cccc(C(=O)O)c1	lipoxygenase	enzyme activity, inhibitor		pH 8.0, 25 °C, added: linoleic acid	61.4 ± 0.36 µM
COc1ccc2c(ccn2CCC2CCN(C(=O)OC(C(F)(F)F)C(F)(F)F)CC2)c1	MGLL	enzyme activity, inhibitor			0.51 µM
Cn1ccc2cc(NC(=O)Nc3cccnc3)ccc21	human MBNL1	CUG repeat RNA binding, inhibitor, HTRF		added: biotin-(CUG)12 RNA	20 µM

Structure (SMILES)	target	assay	test system	setting	IC50
COC(=O)C1=C(C)NC(C)=C(C(=O)OCCN(C)Cc2ccccc2)C1c1cccc([N+](=O)[O-])c1 (stereo not shown)	Multidrug resistance-associated protein 1 (ABCC1, Homo sapiens, UniProt P33527)	substrate efflux, inhibitor, flow cytometry	ABCC1-overexpressing SupT1-Vin cells	added: BODIPY-FL-prazosin 100 nM	2.6 ± 2.2 µM
COc1ccc(C(/C=C/CN2CCC[C@@H]2[C@H](O)C(=O)O)(c2ccc(OC)cc2)c2ccc(OC)cc2)cc1	Sodium- and chloride-dependent GABA transporter 3 (SLC6A11, Homo sapiens, UniProt P48066)	GABA uptake, inhibitor	HEK-293T	30 min preincubation	4.5 µM
C=C(C)CCOP(=O)(O)OP(=O)(O)OP(=O)(O)OC[C@H]1O[C@@H](n2cnc3c(N)ncnc32)[C@H](O)[C@@H]1O	Serine/threonine-protein kinase Sgk3 (SGK3, Homo sapiens, UniProt Q96BR1)	enzyme activity, inhibitor, HotSpot kinase		added: ATP 1 µM	2.4 µM
C[C@@H](CNCc1ccccc1)N1C[C@H](CCCNC(=N)N)N(CCc2cccc(F)c2)C1=S	Kappa-type opioid receptor (OPRK1, Homo sapiens, UniProt P41145)	receptor activation, antagonist, FLIPR			> 10 µM
O=C(COc1cc([N+](=O)[O-])ccc1Cl)Nc1cc(Cl)ccc1C(=O)O	TRPM4	ion flux, inhibitor, fluorescence			2.6 µM
CC(C)C[C@H](NC(=O)[C@H](Cc1ccc2ccccc2c1)NC(=O)[C@H](CCC(=O)O)NC(=O)c1ccnc(Br)n1)C(=O)NC1CC1c1ccccc1 (stereo partly shown)	APC	ligand displacement, FP			6.45 µM
COc1ccc([C@H](CC(=O)O)N2CCN(CCCc3ccc4c(n3)NCCC4)C2=O)cn1	Integrin alpha-V/beta-8 (Homo sapiens, UniProt P06756+P26012)	LAP binding, inhibitor, ELISA			0.0005 ± 0.0002 µM
CCOC(=O)/C(O)=C/C(=O)c1c[nH]c2cc(Cl)ccc2c1=O	gag-pol integrase	3'-processing, inhibitor, gel-based		added: Mg2+	> 333 µM
CCn1[c](=[Au-2][Cl])n(CC)c2ccccc21	Thioredoxin reductase (trxB, Escherichia coli, UniProt P0A9P4)	enzyme activity, inhibitor, absorbance		with preincubation	0.183 µM
O=C(Cc1ccccc1F)Nc1cccc(-c2nnc(C3CCCCC3)o2)c1	α-amylase	enzyme activity, inhibitor			6.51 µM
Cc1ccc(-c2cc(-c3ccc(F)cc3)nc(NC(=S)NC(=O)c3ccccc3)n2)cc1	Proteinase K (PROK, Engyodontium album, UniProt P06873)	enzyme activity, inhibitor, absorbance		pH 8	1.83 µM
COc1cc(CCC(=O)CC(=O)CCc2ccc(O)c(OC)c2)ccc1O	Tpo	enzyme activity, inhibitor, LC-MS/MS, measured: monoiodotyrosine	rat thyroid microsomes	added: L-tyrosine substrate	1.67 µM and 1.32 µM
O=C(O)/C=C/c1ccc(O)c(O)c1	firefly luciferase	luminescence signal, luminescence counter-screen	cell-free, after ADP processing	up to 77 µM, added: ADP 1.25 µM, ATP 11.25 µM	no inhibition
O=C(O)/C(O)=C/C(=O)c1cn(Cc2ccc(F)cc2)c2ccccc2c1=O	gag-pol integrase	strand transfer, inhibitor, gel-based		added: Mg2+	0.16 µM
COc1ccc(-c2cn(CCC3CCN(C(=O)OC(C)(C)C)CC3)c3ncnc(N)c23)cc1OC	Calcium-dependent protein kinase 1 (CDPK1, Plasmodium falciparum, UniProt P62344)	enzyme activity, inhibitor			> 2 µM
C[C@]12C[C@@H]3C[C@](C)(C1)C[C@@](NC(=O)Nc1ccc(C(=O)N4CCC[C@H](C(=O)NCCCCC(=O)NO)C4)cc1F)(C3)C2	EPHX2	enzyme activity, inhibitor, fluorescence			0.0007 µM
CC1(C)S[C@@H]2[C@H](/N=C/N3CCCCCC3)C(=O)N2[C@H]1C(=O)O	PA3047 (Pseudomonas aeruginosa, UniProt Q9HZG1)	binding, Bocillin FL competition	Pseudomonas aeruginosa 1771 membranes	PBP 4, added: Bocillin FL 100 µM	> 39.9 µM
O=C(COc1cccc2c1CCCC2)Nc1cc(Cl)ccc1C(=O)O	TRPM4	ion flux, inhibitor, fluorescence			1.2 µM
COC(=O)c1c(C)[nH]c(C)c1C(=O)c1ccccc1Cc1ccccc1	CACNA1I	inhibitor, FLIPR calcium	HEK293 with GCaMP6s-CAAX, Kir2.3	added: KCl at EC90	31 µM
C[C@]12C[C@@H]3C[C@](C)(C1)C[C@@](NC(=O)Nc1ccc(CN4CCC[C@H](C(=O)NCCCCCC(=O)NO)C4)cc1F)(C3)C2	EPHX2	enzyme activity, inhibitor, fluorescence			0.0007 µM
Nc1ccn([C@@H]2O[C@H](COP(=O)(O)OP(=O)(O)OP(=O)(O)O)[C@@H](O)C2(F)F)c(=O)n1	POLA1 (Bos taurus, UniProt A0AAA9THK8)	enzyme activity, inhibitor, radiometric			> 2000 µM
O=C(O)c1cc(Br)c2ccc(Br)cc2c1	Glutamate NMDA receptor; Grin1/Grin2c (Rattus norvegicus, UniProt P35439+Q00961)	ion current, two-electrode voltage clamp		oocytes	84.1 µM
NC(=O)c1cccc(-c2cc(OC(=O)NC3CCCCC3)ccc2O)c1	EPHX2	enzyme activity, inhibitor, fluorescence		pH 7.4	7.18 µM
C=CC(C)(C)c1cc2cc(-c3ccc(O)cc3O)c(=O)oc2cc1O	Transcription factor p65 (RELA, Homo sapiens, UniProt Q04206)	NF-κB activity, inhibitor			0.06 µM
O=P(O)(O)Oc1ccc(OCCOc2ccc(OP(=O)(O)O)c(OP(=O)(O)O)c2)cc1OP(=O)(O)O	Inositol polyphosphate-5-phosphatase A (Homo sapiens, UniProt Q14642)	enzyme activity, inhibitor		added: Ins(1,4,5)P3 1.0 µM	> 10 µM
CCCN(CCC)c1ccc(C=O)cc1	Aldehyde dehydrogenase 1A1 (ALDH1A1, Homo sapiens, UniProt P00352)	enzyme activity, inhibitor, spectrophotometry	purified human erythrocyte enzyme	pH 8.4, added: phenylacetaldehyde, 1 mM NAD	1.2 ± 0.1 µM

Excerpt of the above:
Structure (SMILES)	target	assay	test system	setting	IC50
C[C@@H](CNCc1ccccc1)N1C[C@H](CCCNC(=N)N)N(CCc2cccc(F)c2)C1=S	Kappa-type opioid receptor (OPRK1, Homo sapiens, UniProt P41145)	receptor activation, antagonist, FLIPR			> 10 µM
C=CCc1ccc(O)c(-c2cc(CC=C)ccc2O)c1	mitochondrial complex I	complex I-dependent oxygen consumption rate, inhibitor	G-361	24 h	31 µM
Cc1ccc(S(=O)(=O)N[C@@H](CC(=O)NC(C)(C)C)C(=O)N[C@@H](C)CC(=O)NCc2cccc3ccccc23)cc1	Proteasome component C5/PSMB5 (Homo sapiens, UniProt P20618+P28074)	chymotrypsin-like activity, inhibitor		added: suc-LLVY-AMC	74.9 ± 10.5 µM
